Experimental data collected from several papers.
Each line is one published result; not all experiments were run side by side.

Structure (SMILES)	organism	test	system	setting	MIC
N=C(N)NCCC[C@H](NC(=O)[C@H](Cc1c[nH]c2ccccc12)NC(=O)[C@H](CCCNC(=N)N)NC(=O)[C@H](Cc1c[nH]c2ccccc12)NC(=O)[C@H](Cc1c[nH]c2ccccc12)NC(=O)[C@H](Cc1c[nH]c2ccccc12)NC(=O)[C@H](CCCNC(=N)N)NC(=O)[C@H](Cc1c[nH]c2ccccc12)NC(=O)[C@@H](N)CCCNC(=N)N)C(=O)N[C@@H](Cc1c[nH]c2ccccc12)C(N)=O	Candida albicans	broth microdilution	CGMCC 2.209, RPMI 1640-MOPS	48 h, 30 °C, with: KCl 4.5 mM	8 µM
CC[C@H](C)[C@H](NC(=O)[C@H](CCCCN)NC(=O)[C@H](CCCCN)NC(=O)[C@H](Cc1ccccc1)NC(=O)[C@@H](NC(=O)[C@@H](NC(=O)[C@H](CCCNC(=N)N)NC(=O)[C@H](Cc1ccccc1)NC(=O)[C@@H](NC(=O)[C@H](CCCCN)NC(=O)[C@H](CCCCN)NC(=O)[C@@H](N)CCSC)[C@@H](C)CC)C(C)C)[C@@H](C)CC)C(=O)N[C@@H](CC(C)C)C(=O)N[C@@H](CCCCN)C(=O)N[C@@H](CCCNC(=N)N)C(=O)N[C@@H](CC(C)C)C(=O)N[C@H](C(=O)N[C@H](C(=O)O)C(C)C)[C@@H](C)CC	Staphylococcus aureus	broth microdilution	MRSA GU-1	compound pretreated with pepsin 1 h, with: pepsin 1 mg/mL	16 µg/mL
CC[C@H](C)[C@H](NC(=O)[C@H](CC(C)C)NC(=O)[C@H](CC(C)C)NC(=O)[C@H](Cc1c[nH]cn1)NC(=O)[C@H](CCCCN)NC(=O)[C@H](Cc1c[nH]cn1)NC(=O)[C@H](CCCNC(=N)N)NC(=O)[C@@H]1CCCN1C(=O)[C@H](Cc1ccc(O)cc1)NC(=O)[C@H](CC(C)C)NC(=O)[C@H](CCC(N)=O)NC(=O)[C@@H](N)CO)C(=O)N[C@@H](CCCCN)C(=O)N[C@@H](CCCNC(=N)N)C(=O)N[C@@H](CO)C(=O)N[C@@H](CC(C)C)C(=O)N[C@@H](CCCNC(=N)N)C(=O)N[C@@H](CS)C(=O)N[C@@H](CCCNC(=N)N)C(=O)N[C@@H](CCCCN)C(=O)N[C@@H](CS)C(=O)O	Staphylococcus haemolyticus				50 µg/mL
CS(=O)(=O)Nc1ncn(-c2cc(F)c(COc3ccc(OS(=O)(=O)F)cc3)c(F)c2)n1	Mycobacterium avium				6.25 µM
CC[C@H](C)[C@H](NC(=O)[C@H](CCCNC(=N)N)NC(=O)[C@H](Cc1c[nH]c2ccccc12)NC(=O)[C@H](CCCNC(=N)N)NC(=O)[C@H](Cc1c[nH]c2ccccc12)NC(=O)[C@H](Cc1c[nH]c2ccccc12)NC(=O)[C@H](Cc1c[nH]c2ccccc12)NC(=O)[C@H](CCCNC(=N)N)NC(=O)[C@H](Cc1c[nH]c2ccccc12)NC(=O)[C@@H](N)CCCNC(=N)N)C(N)=O	Candida albicans	broth microdilution	CGMCC 2.209, RPMI 1640-MOPS	48 h, 30 °C, with: ZnCl2 8 µM	16 µM
CC(C)C[C@@H]1NC(=O)[C@@H](Cc2ccccc2)NC(=O)[C@H](CCN)NC(=O)[C@@H](NC(=O)[C@H](CCN)NC(=O)[C@@H](N)[C@@H](C)O)CCNC(=O)[C@H]([C@@H](C)O)NC(=O)[C@H](CCN)NC(=O)[C@H](CCN)NC1=O	Escherichia coli	checkerboard	mcr-1	concentration not given, with: rifampicin	0.75 µg/mL
CC(C)C[C@H](NC(=O)[C@H](CCCNC(=N)N)NC(=O)[C@H](Cc1c[nH]c2ccccc12)NC(=O)[C@H](CCCNC(=N)N)NC(=O)[C@H](Cc1c[nH]c2ccccc12)NC(=O)[C@H](Cc1c[nH]c2ccccc12)NC(=O)[C@H](Cc1c[nH]c2ccccc12)NC(=O)[C@H](CCCNC(=N)N)NC(=O)[C@H](Cc1c[nH]c2ccccc12)NC(=O)[C@@H](N)CCCNC(=N)N)C(N)=O	Candida albicans	broth microdilution	58288, RPMI 1640-MOPS	48 h, 30 °C	8 µM
CC(C)C[C@@H]1NC(=O)[C@H](Cc2ccccc2)NC(=O)[C@H](Cc2ccc(O)cc2)NC(=O)[C@H](CC(C)C)NC(=O)[C@H](CCC(=O)O)NC(=O)[C@H](Cc2ccccc2)NC(=O)[C@H](CCCNC(=N)N)NC(=O)[C@H](CCC(N)=O)NC(=O)[C@H](CC(C)C)NC(=O)[C@H](CC(=O)O)NC(=O)[C@@H]2CCCN2C(=O)[C@H](CCCCN)NC(=O)[C@H](C(C)C)NC(=O)[C@H](CC(N)=O)NC(=O)[C@H](Cc2ccc(O)cc2)NC(=O)[C@H]([C@@H](C)O)NC(=O)[C@@H](N)CSSC[C@@H](C(=O)O)NC(=O)[C@H]([C@@H](C)O)NC(=O)[C@H](C(C)C)NC(=O)[C@H]([C@@H](C)O)NC(=O)CNC1=O	Shigella flexneri	broth dilution	CGMCC strain	24 h	> 40 µM
CC(C)C1NC(=O)C(C(=O)NC(C(=O)NC2C(=O)N3C2SC(C)(C)C3C(=O)O)c2ccccc2)=C1O (stereo not shown)	Escherichia coli	broth microdilution	ATCC 35218, low-level TEM-1	no clavulanic acid	> 200 µg/mL
CC[C@H](C)C[C@H](C)CCCCCCCCC(=O)N[C@H]1C[C@@H](O)[C@@H](NCCN)NC(=O)[C@@H]2[C@@H](O)CCN2C(=O)[C@H]([C@H](O)CCN)NC(=O)[C@H]([C@H](O)[C@@H](O)c2ccc(O)cc2)NC(=O)[C@@H]2C[C@@H](O)CN2C(=O)[C@H]([C@@H](C)O)NC1=O	Pichia norvegensis	broth dilution	ATCC 96139	48 h, 37 °C	0.5 µg/mL
C[C@H](NC(=O)[C@H](CCCNC(=N)N)NC(=O)[C@H](Cc1c[nH]c2ccccc12)NC(=O)[C@H](CCCNC(=N)N)NC(=O)[C@H](Cc1c[nH]c2ccccc12)NC(=O)[C@H](Cc1c[nH]c2ccccc12)NC(=O)[C@H](Cc1c[nH]c2ccccc12)NC(=O)[C@H](CCCNC(=N)N)NC(=O)[C@H](Cc1c[nH]c2ccccc12)NC(=O)[C@@H](N)CCCNC(=N)N)C(N)=O	Candida albicans	broth microdilution	58288, RPMI 1640-MOPS	48 h, 30 °C	4 µM
CC1(C)SC2C(NC(=O)C(NC(=O)C3=C(O)C(Cc4ccccc4)NC3=O)c3ccccc3)C(=O)N2C1C(=O)O (stereo not shown)	Escherichia coli	broth microdilution	Keio mutant JW0587-1	18 h, enterobactin-related gene	12.5 µg/mL
CC[C@H](C)[C@H](NC(=O)[C@H](Cc1ccccc1)NC(=O)[C@@H](NC(=O)[C@H](CO)NC(=O)[C@@H](N)CCCNC(=N)N)[C@@H](C)CC)C(=O)N[C@@H](CCCCN)C(=O)N[C@@H](Cc1ccc(O)cc1)C(=O)N[C@@H](CCCCN)C(=O)N[C@@H](CO)C(=O)N[C@@H](CCCCN)C(=O)N1CCC[C@H]1C(=O)N[C@@H](Cc1ccccc1)C(=O)N[C@@H](CS)C(=O)N[C@@H](CCC(=O)O)C(=O)N[C@@H](CCCCN)C(=O)N[C@@H](CC(C)C)C(=O)N[C@@H](CC(C)C)C(=O)N[C@@H](CO)C(=O)N[C@@H](Cc1c[nH]c2ccccc12)C(=O)N[C@H](C(=O)N[C@@H](CCCCN)C(=O)N[C@@H](CO)C(=O)O)C(C)C	Staphylococcus haemolyticus				100 µg/mL
CN[C@H](CC(C)C)C(=O)N[C@H]1C(=O)N[C@@H](CC(N)=O)C(=O)N[C@H]2C(=O)NC3C(=O)N[C@H](C(=O)N[C@H](C(=O)NCCC[N+](C)(C)C)c4cc(O)cc(O)c4-c4cc3ccc4O)[C@H](O)c3ccc(c(Cl)c3)Oc3cc2cc(c3OC2OC(CO)C(O)[C@H](O)[C@@H]2O[C@H]2CC(C)(NCc3ccc(-c4ccc(Cl)cc4)cc3)[C@H](O)[C@H](C)O2)Oc2ccc(cc2Cl)[C@H]1O (stereo partly shown)	Enterococcus faecalis		BM 4166 vanA		1 µg/mL
CC(C)(C)Oc1ccc(CC2NC(=O)C(C(=O)NC(C(=O)NC3C(=O)N4C3SC(C)(C)C4C(=O)O)c3ccccc3)=C2O)cc1 (stereo not shown)	Escherichia coli	broth microdilution	isolate IU 356 A, KPC-3, VIM-1, TEM	no clavulanic acid	> 200 µg/mL
CC[C@H](C)[C@H](NC(=O)CN)C(=O)NCC(=O)N[C@@H](C)C(=O)N[C@H](C(=O)N[C@@H](CC(C)C)C(=O)N[C@@H](CCCCN)C(=O)N[C@H](C(=O)N[C@@H](CC(C)C)C(=O)N[C@H](C(=O)N[C@H](C(=O)NCC(=O)N[C@@H](CC(C)C)C(=O)N1CCC[C@H]1C(=O)N[C@@H](C)C(=O)N[C@@H](CC(C)C)C(=O)N[C@H](C(=O)N[C@@H](CO)C(=O)N[C@@H](Cc1c[nH]c2ccccc12)C(=O)N[C@H](C(=O)N[C@@H](CCCCN)C(=O)N[C@@H](CCCNC(=N)N)C(=O)N[C@@H](CCCCN)C(=O)N[C@@H](CCCNC(=N)N)C(=O)N[C@@H](CCC(N)=O)C(=O)N[C@@H](CCC(N)=O)C(N)=O)[C@@H](C)CC)[C@@H](C)CC)[C@@H](C)O)[C@@H](C)O)C(C)C)C(C)C	Lactiplantibacillus plantarum		7469, probiotic strain	24 h, 37 °C, tested up to 128 µM	128 µM
CC1NC(=O)C(C(=O)NC(C(=O)NC2C(=O)N3C2SC(C)(C)C3C(=O)O)c2ccccc2)=C1O (stereo not shown)	Escherichia coli	broth microdilution	ATCC 35218, low-level TEM-1	with: clavulanic acid 6 µg/mL	> 200 µg/mL
Cc1ncc([N+](=O)[O-])n1CCO	Bacteroides spp. and Parabacteroides distasonis				0.25 to 1 µg/mL
CC1(C)SC2C(NC(=O)C(NC(=O)C3=C(O)CNC3=O)c3ccccc3)C(=O)N2C1C(=O)O (stereo not shown)	Escherichia coli	broth microdilution	Keio mutant JW0146-2	18 h, ferric hydroxamate uptake gene	50 µg/mL
CC(C)[C@H](NC(=O)[C@H](CCCNC(=N)N)NC(=O)[C@H](Cc1c[nH]c2ccccc12)NC(=O)[C@H](CCCNC(=N)N)NC(=O)[C@H](Cc1c[nH]c2ccccc12)NC(=O)[C@H](Cc1c[nH]c2ccccc12)NC(=O)[C@H](Cc1c[nH]c2ccccc12)NC(=O)[C@H](CCCNC(=N)N)NC(=O)[C@H](Cc1c[nH]c2ccccc12)NC(=O)[C@H](CCCNC(=N)N)NC(=O)CN)C(N)=O	Candida albicans	broth microdilution	14936, RPMI 1640-MOPS	48 h, 30 °C	8 µM
CC(C)CC1NC(=O)C(C(=O)NC(C(=O)NC2C(=O)N3C2SC(C)(C)C3C(=O)O)c2ccccc2)=C1O (stereo not shown)	Escherichia coli	broth microdilution	isolate IU, CTX-M-14, TEM-1	with: clavulanic acid 6 µg/mL	> 200 µg/mL
C[C@H](NC(=O)[C@H](CCCNC(=N)N)NC(=O)[C@H](Cc1c[nH]c2ccccc12)NC(=O)[C@H](CCCNC(=N)N)NC(=O)[C@H](Cc1c[nH]c2ccccc12)NC(=O)[C@H](Cc1c[nH]c2ccccc12)NC(=O)[C@H](Cc1c[nH]c2ccccc12)NC(=O)[C@H](CCCNC(=N)N)NC(=O)[C@H](Cc1c[nH]c2ccccc12)NC(=O)[C@H](CCCNC(=N)N)NC(=O)CN)C(N)=O	Candida albicans	broth microdilution	CGMCC 2.209, RPMI 1640-MOPS	48 h, 30 °C, with: NaCl 150 mM	8 µM
